Results of several laboratories.
Protocols differ between the studies behind these lines. ± marks the error that the study gave.

Structure (SMILES) | system | setting | concentration
CN1CCCC1CCNS(=O)(=O)c1ccc2c(c1)CN(CC1CCCCC1)CC2 (centres unmarked) | THY-Tau22 mouse, pons/cerebellum | oral in diet, 0.0002% in diet, 6 months, sampled at 8 p.m. | 0.989 ng/g
CN(C)C(=O)c1cc2cnc(Nc3ccc(-c4ccc5c(=O)cc(N6CCOCC6)oc5c4)cc3)nc2n1C1CCCC1 | BALB/c mouse, spleen | oral, 20 mg/kg, 2 h | 827 ± 664 ng/g
O=S(=O)(c1ccc(-c2ccc3nccc(Nc4ccncn4)c3c2)cc1)N1CCOCC1 | female BALB/c mouse, brain | intraperitoneal, 10 mg/kg, 0.25 h | 69.6 ng/mL
CSc1cc(Oc2ccnc3[nH]c(=O)cnc23)ccc1NC(=O)Nc1cc(C(C)(C)C)nn1-c1ccccc1 | nude mouse (female), tumor | oral, 20 mg/kg, 1 h after last dose, end of therapy | 6.54 µM
O=C(N[C@H](Cc1c[nH]c2ccccc12)C(=O)Nc1ccncc1)c1ccc(N2CCN(c3ccc(F)cc3F)CC2)cc1F | Swiss Webster mouse, female, liver | oral, 50 mg/kg, 8 h, 20% Kolliphor vehicle | 46.1 µM
CC(C)(C)c1cc(NC(=O)Nc2ccc(Oc3ccnc4[nH]c(=O)cnc34)cc2F)n(-c2ccccc2)n1 | NSG mouse (female), tumor | oral, 20 mg/kg, 1 h after last dose, end of therapy | 7.71 µM
O=C(N[C@H](Cc1c[nH]c2ccccc12)C(=O)Nc1ccncc1)c1ccc(-c2ccc(F)c(Cl)c2)cc1F | Swiss Webster mouse, female, muscle | oral, 50 mg/kg, 8 h, 20% HPβCD vehicle | 4.18 µM
COc1ccc2c3c([nH]c2c1)[C@H](CC(C)C)N1C(=O)[C@H](CC(=O)NC(C)C)NC(=O)[C@@H]1C3 | wild-type mouse, male, serum | oral, 100 mg/kg, 0.5 h | 37 µM

Some of these lines once more:
Structure (SMILES) | system | setting | concentration
O=C(N[C@H](Cc1c[nH]c2ccccc12)C(=O)Nc1ccncc1)c1ccc(N2CCN(c3ccc(F)cc3F)CC2)cc1F | Swiss Webster mouse, female, liver | oral, 50 mg/kg, 8 h, 20% Kolliphor vehicle | 46.1 µM
